Published values from different studies.
A part holds a random share of what one study measured. Substitutions count along the parent as printed.

Set 1
Target: CCNF, cyclin fold, Cln2 fusion (human)
Method: yeast growth competition, sequencing
Medium: yeast
Notes: strong parent motif
Relative to: not given
Direction: higher = stronger binding
Starting sequence: CDKN1B docking peptide (human); PSACRNLFGPVDH
Under “normalised enrichment score”, `PSACRNPFGPVDH [L7P]` is recorded as -0.233.
`PSACRNLFGAVDH [P10A]` — result for “normalised enrichment score”: 5.88.
`PSACRNLFGPFDH [V11F]` — result for “normalised enrichment score”: 7.09.
`PSACRNLFGPVDS [H13S]`: “normalised enrichment score” 6.96.
`PSACRNLFGPVMH [D12M]`: “normalised enrichment score” 7.09.
`PSASRNLFGPVDH [C4S]` — result for “normalised enrichment score”: 4.68.
Under “normalised enrichment score”, `PSAVRNLFGPVDH [C4V]` is recorded as 5.84.
`PSACRNLFNPVDH [G9N]` — result for “normalised enrichment score”: 4.08.
For `PSACRNLFTPVDH [G9T]`, “normalised enrichment score” read 4.18.
For `PSACRNNFGPVDH [L7N]`, “normalised enrichment score” read -0.0319.
`PEACRNLFGPVDH [S2E]`: “normalised enrichment score” 5.1.
`PSAGRNLFGPVDH [C4G]` — result for “normalised enrichment score”: 1.86.
For `PSACRNLFGPVEH [D12E]`, “normalised enrichment score” read 6.72.
Under “normalised enrichment score”, `PSACRNLFGSVDH [P10S]` is recorded as 7.07.
Under “normalised enrichment score”, `PSACRNLFGPVFH [D12F]` is recorded as 7.35.
`PSANRNLFGPVDH [C4N]` — result for “normalised enrichment score”: 4.32.
`PSACRNDFGPVDH [L7D]`: “normalised enrichment score” 0.387.
`PSACRPLFGPVDH [N6P]`: “normalised enrichment score” 3.57.
For `PSACRNLFVPVDH [G9V]`, “normalised enrichment score” read 2.23.
`PSAIRNLFGPVDH [C4I]` — result for “normalised enrichment score”: 5.22.
For `PSACRNLFGPCDH [V11C]`, “normalised enrichment score” read 6.
`PSACRNLFGPHDH [V11H]`: “normalised enrichment score” 7.12.
Under “normalised enrichment score”, `PSAPRNLFGPVDH [C4P]` is recorded as 1.99.
`PSACYNLFGPVDH [R5Y]` — result for “normalised enrichment score”: 0.296.
`PSACRNLFGPVDA [H13A]`: “normalised enrichment score” 6.78.

Set 2
Target: Sal-like protein 4, full length isoform A (SALL4, Homo sapiens, UniProt Q9UJQ4, residues 1-1053)
UniProt Q9UJQ4, sequence (whole entry, looked up): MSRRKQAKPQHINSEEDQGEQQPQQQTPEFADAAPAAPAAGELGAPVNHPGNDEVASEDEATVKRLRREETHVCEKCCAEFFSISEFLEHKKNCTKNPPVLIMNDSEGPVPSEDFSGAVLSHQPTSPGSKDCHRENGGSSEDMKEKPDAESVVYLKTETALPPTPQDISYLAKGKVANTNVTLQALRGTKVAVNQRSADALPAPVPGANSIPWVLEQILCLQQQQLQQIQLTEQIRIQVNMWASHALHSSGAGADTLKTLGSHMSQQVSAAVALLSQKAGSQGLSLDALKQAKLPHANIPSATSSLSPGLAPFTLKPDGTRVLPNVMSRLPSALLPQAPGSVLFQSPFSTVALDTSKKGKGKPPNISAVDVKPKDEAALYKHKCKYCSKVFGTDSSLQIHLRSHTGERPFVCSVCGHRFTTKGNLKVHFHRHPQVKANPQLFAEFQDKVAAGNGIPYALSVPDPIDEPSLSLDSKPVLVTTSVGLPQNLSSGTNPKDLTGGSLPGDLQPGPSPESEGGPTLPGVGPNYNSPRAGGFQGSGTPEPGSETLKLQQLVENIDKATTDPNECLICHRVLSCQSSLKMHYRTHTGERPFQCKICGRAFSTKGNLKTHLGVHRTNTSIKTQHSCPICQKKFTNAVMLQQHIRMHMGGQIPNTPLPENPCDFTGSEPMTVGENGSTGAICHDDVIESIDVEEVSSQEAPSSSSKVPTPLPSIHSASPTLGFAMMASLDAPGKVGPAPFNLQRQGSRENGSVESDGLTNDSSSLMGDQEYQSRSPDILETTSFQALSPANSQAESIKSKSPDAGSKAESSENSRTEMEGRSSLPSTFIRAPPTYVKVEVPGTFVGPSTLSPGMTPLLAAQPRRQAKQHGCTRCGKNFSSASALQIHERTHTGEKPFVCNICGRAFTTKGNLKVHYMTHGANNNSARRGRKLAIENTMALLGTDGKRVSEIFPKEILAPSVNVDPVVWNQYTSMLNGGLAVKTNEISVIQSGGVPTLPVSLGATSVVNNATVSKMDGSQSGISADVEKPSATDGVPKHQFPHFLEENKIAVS
Method: universal PBM
Molecule type: double-stranded DNA, one strand shown
Medium: in vitro
Tested at: 600 nM
Notes: 8-mer, flanks averaged, mean of replicates
Direction: higher = stronger binding
With `CTCGAAGC` the E-score was -0.201.
`GAGAATAA` gave an E-score of 0.208.
`CTAATCTA` has an E-score of 0.161.
For `ATACGGTA`, the E-score was 0.17.
The E-score of `AACGCCTA` is reported as -0.0478.
`CCGCCTTC` gave an E-score of -0.233.
With `GGGACCAA` the E-score was -0.273.
`CAGTCCCC` gave an E-score of -0.336.
`CGGACACC` gave an E-score of -0.33.
The E-score of `TTACAAAA` is reported as 0.258.
`CTCCTTTC` gave an E-score of -0.0695.
With `CCGTCACA` the E-score was -0.159.
With `AGATCCCC` the E-score was -0.183.
The E-score of `TCCGCCGA` is reported as -0.215.
For `CACTGTAC`, the E-score was -0.135.
The E-score of `AATAATTC` is reported as 0.422.
`GTGTCGGA` has an E-score of -0.154.
For `ACCAGTCT`, the E-score was -0.215.
The E-score of `CCCGTGGA` is reported as -0.284.
`GGCTATGA` has an E-score of 0.0148.
The E-score of `CGAGACAG` is reported as -0.2.
`AGCCCGAC` has an E-score of -0.379.
With `AAGCTTGC` the E-score was -0.089.

Set 3
Target: RNA binding protein fox-1 homolog 2, RRM domain, GST-SBP tag (RBFOX2, Homo sapiens, UniProt O43251-10, residues 100-194)
Method: RNA Bind-n-Seq
Molecule type: RNA
Medium: in vitro
Tested at: 365 nM
Notes: natural RNA segment, single round, ends assumed
Relative to: no-protein control
Direction: higher = stronger binding
Construct (chain): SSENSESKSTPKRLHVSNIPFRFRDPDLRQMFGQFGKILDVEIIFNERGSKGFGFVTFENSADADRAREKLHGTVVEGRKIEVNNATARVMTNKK
Under “RBNS enrichment (R)”, `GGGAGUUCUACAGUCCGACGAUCACAAUGUUAGCUGAAAGCAUGUUUAUUUUUUAAGGAGCUCCUGCUCUUCUGCACAUUUCCAUAUCUAGAGAUGGAUAGUCCUGAACUUGACGUCACACCCACAGGUGAAAUGGAAUUCUCGGGUGCCAA` is recorded as 22.8.
`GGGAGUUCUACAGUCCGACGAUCUAGAUAAUAGUGAAAUAAAUUCAGCUUUGCCAUUGCUGGAGUUGUCAAAAUUCCACAGUAAUUAAAAUUUGAAUUUUUACCGAAUAUGAAAUUUCCAAAUUAAAAACGUAUGGAAUUCUCGGGUGCCAA`: “RBNS enrichment (R)” 0.479.
`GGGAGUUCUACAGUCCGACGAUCCAUCUCUCCCACCCGGCUCUAGGCCAAAAGGCUCGGUACCUCCUUACUGGGAGCCACGUAAAUGGAACCUUGACCAUAUUUCUGCAAUAAACAGUUUAAUUUGUGUCUUUUGGAAUUCUCGGGUGCCAA` — result for “RBNS enrichment (R)”: 0.24.
Under “RBNS enrichment (R)”, `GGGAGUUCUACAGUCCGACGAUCCCUUUUGAUUAAGAGCCUUUUUUGUUUCUGCUCUUUGUCAGCUUUCAGGGGAGAAGGAGGCCACUGGAAAAUUAUUUCCCUAAGUGCAGGCUGUUGACUGCGUAUGCCAAUGGAAUUCUCGGGUGCCAA` is recorded as 1.03.
Under “RBNS enrichment (R)”, `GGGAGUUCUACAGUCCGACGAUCAAUAAUAACAACAAAAAAGCUUUGUUUAGUCUUUGUUUUGUUUUCCAGGACAAAAACAAGCUUCCCUAAGCUUGAAUUUAUAGUUAUAAAAUGAAAACAAAACCAAAAAAUGGAAUUCUCGGGUGCCAA` is recorded as 0.45.
`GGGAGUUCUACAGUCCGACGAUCCCAAAUUGUGUAUAUAUCUUAUAACUGUUUUAGAAAUUGGUACAUAGGCUUCUAUUACCUAUUAGGUGGAAAUUUUAUAUGUAAAUGUGUUAGCACUGAUAGUCCUUUUUUGGAAUUCUCGGGUGCCAA` — result for “RBNS enrichment (R)”: 0.607.
Under “RBNS enrichment (R)”, `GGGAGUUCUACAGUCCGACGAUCUGUGCAUUUGUCAGUCUGGUAGAGUGGACUGGAGGUUGUCAAGUCUGCAUUGUAGUCUGAGUGUGCCACAUGUUAGCAAUGUGACCUUGGGCCACACACCUCUUCUGGGCUGGAAUUCUCGGGUGCCAA` is recorded as 0.981.
`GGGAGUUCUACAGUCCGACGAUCUAUUUUUGUACUACAUGGGGACUCUUCCUGCAUGUCAGCAAUAAAACUUCCUGAUCUGGAGCCACCAUGGUCUGUAGCCUGCCUCUGUGCUUGUCCGUGCGCUCUCUAGCUGGAAUUCUCGGGUGCCAA` — result for “RBNS enrichment (R)”: 2.05.

Set 4
Target: Histone acetyltransferase KAT6A, winged helix 2, GST fusion (KAT6A, Homo sapiens, UniProt Q92794, residues 85-181)
Method: protein binding microarray
Molecule type: double-stranded DNA, one strand shown
Medium: in vitro
Tested at: not given
Notes: 8-mer, flanks averaged, mean of 2 arrays, mostly near background
Relative to: not given
Direction: higher = stronger binding
Target sequence (chain): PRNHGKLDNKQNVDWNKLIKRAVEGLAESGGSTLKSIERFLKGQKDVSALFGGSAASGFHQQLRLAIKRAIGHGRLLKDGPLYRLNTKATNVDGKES
With `ATGTCAAC` the E-score was -0.129.
`AAAGTTCT` has an E-score of 0.043.
With `AGGGAATG` the E-score was -0.0131.
For `CTCATCGC`, the E-score was 0.0484.
`GCCTATTA` gave an E-score of 9e-05.
`AGTCTAAG` gave an E-score of -0.0809.
The E-score of `ACGCACCA` is reported as 0.206.
The E-score of `ATAAAATG` is reported as 0.115.
With `AGCAGAAT` the E-score was 0.152.
The E-score of `TAACGTGA` is reported as -0.25.
`GACGCAAC` gave an E-score of 0.154.
For `CGCACTCA`, the E-score was 0.00838.
For `ACCGATCG`, the E-score was -0.0215.
For `CGATGACA`, the E-score was 0.0164.
With `GTAAAGCA` the E-score was -0.000865.
The E-score of `CACGGATG` is reported as 0.0405.
`AGAAACAT` gave an E-score of 0.094.
`GGCAAGTA` gave an E-score of -0.0212.

Set 5
Target: ABI1, truncated, D143A, DHFR fusion (Arabidopsis thaliana)
Method: DHFR PCA, deep sequencing
Medium: yeast
Notes: methotrexate growth selection, single substitutions
Together with: (+)-ABA 200 µM
Relative to: wild-type fitted maximum
Direction: higher = stronger binding
Starting sequence: PYL1, truncated, DHFR fusion (Arabidopsis thaliana); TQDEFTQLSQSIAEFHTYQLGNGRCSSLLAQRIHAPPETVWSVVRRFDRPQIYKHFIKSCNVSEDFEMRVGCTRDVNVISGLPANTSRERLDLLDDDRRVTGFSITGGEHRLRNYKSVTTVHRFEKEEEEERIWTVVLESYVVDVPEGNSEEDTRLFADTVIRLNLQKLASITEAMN
`L169V` — result for “relative binding score”: 31.1%.
`G107I` — result for “relative binding score”: 9.19%.
For `R24D`, “relative binding score” read 72.1%.
Under “relative binding score”, `S87D` is recorded as -13.8%.
`D97P` — result for “relative binding score”: 91.4%.
Under “relative binding score”, `N149S` is recorded as 94.8%.
`A35I` — result for “relative binding score”: 35.4%.
`L20E` — result for “relative binding score”: 101%.
For `L112M`, “relative binding score” read 93%.
For `N61V`, “relative binding score” read 103%.
Under “relative binding score”, `Q19M` is recorded as 94%.
`R111L`: “relative binding score” 82.1%.
Under “relative binding score”, `R99W` is recorded as 110%.
For `R88I`, “relative binding score” read 109%.
For `N165F`, “relative binding score” read 9.03%.

Other studies, line by line
The fold induction of `PhoQ, residues 284 288 289 292 302 303 DDMDFR` is reported as 0.764 (PhoP, residues 12 14 15 18 19 GHCSL (Escherichia coli, UniProt P23836); Sort-seq, item: YFP reporter; E. coli; PhoQ-PhoP variant library, together with: 10 µM Mg2+; relative to: high Mg2+ state, higher = stronger signaling).

Some of these lines once more (set 1):
`PSACRNLFNPVDH [G9N]` — result for “normalised enrichment score”: 4.08.
`PSACRNLFGPHDH [V11H]`: “normalised enrichment score” 7.12.
Under “normalised enrichment score”, `PSACRNLFGSVDH [P10S]` is recorded as 7.07.
`PSACRNDFGPVDH [L7D]`: “normalised enrichment score” 0.387.
`PSAGRNLFGPVDH [C4G]` — result for “normalised enrichment score”: 1.86.
